{"data": "Measured values from different studies", "Dipeptidyl peptidase 8": "Dipeptidyl peptidase 8 (Homo sapiens, UniProt Q6V1X1)", "MAPK8": "Mitogen-activated protein kinase 8 (MAPK8, Homo sapiens, UniProt P45983)", "note": "Each line is one published result; not all experiments were run side by side. Values joined by “and” are separate records of one study, mostly repeats; a detail may differ. Numbers after ± are the reported error."}
{"Compound": "N=C(N)NCCS(=O)(=O)O", "target": "SLC6A6 (Homo sapiens, UniProt P31641, G62A)", "assay": "binding, microscale thermophoresis", "conditions": "15.6 µM, room temperature, added: 50 nM labelled protein", "scale": "higher = more binding", "measurement": "normalised MST signal", "value": 0.00605}
{"Compound": "Cc1cc(C)cc(COc2cc3c(cc2OCc2cc(C)cc(C)c2)C2CC(O)(Cc4cn(CCOCCOCCNC(=O)CCCCC5SCC6NC(=O)NC65)nn4)CC(C)N2CC3)c1 (stereo not drawn)", "target": "Proteasome activator complex subunit 2 (Homo sapiens, UniProt Q9UL46)", "assay": "biotinylated probe pull-down, refers to: PSME2", "conditions": "10 µM probe", "scale": "reference: heavy over light", "measurement": "SILAC ratio", "value": 2.21}
{"Compound": "CCCCCCCCCCCCCCCC(=O)OCC(CSC[C@H](N)C(=O)N[C@@H](CO)C(=O)N[C@@H](CCCCN)C(=O)N[C@@H](CCCCN)C(=O)N[C@@H](CCCCN)C(=O)N[C@@H](CCCCN)C(=O)NCCCCCC(=O)N[C@@H](CCCCN)C(=O)N[C@@H](CC(C)C)C(=O)N[C@H](C(=O)N[C@@H](Cc1ccccc1)C(=O)N[C@@H](Cc1ccccc1)C(=O)N[C@@H](Cc1ccc2ccccc2c1)C(=O)O)C(C)C)OC(=O)CCCCCCCCCCCCCCC (stereo partly drawn)", "target": "Amyloid-beta precursor protein, fibrillar amyloid-beta (APP, Homo sapiens, UniProt P05067)", "assay": "TEM", "conditions": "2.0 eq, 8 h, fibril 3, added: APP 20 µM", "measurement": "fibril diameter", "value": "32.5 nm"}
{"Compound": "CC(C)[C@@H]1NC(=O)[C@H](Cc2ccccc2)NC(=O)CSC[C@@H](C(N)=O)NC(=O)[C@H](CCC(=O)O)NC(=O)[C@H](CO)NC(=O)[C@H](Cc2c[nH]c3cccc(Cl)c23)NC(=O)[C@H](C2CCCCC2)NC(=O)[C@H](C(C)C)NC(=O)[C@H](Cc2ccc(O)cc2)NC(=O)[C@H](CC(=O)O)NC(=O)[C@H](Cc2c[nH]c3ccccc23)NC(=O)[C@H](Cc2ccc(N)nc2)NC(=O)[C@H](Cc2c[nH]c3ccc(Cl)cc23)NC(=O)[C@H](CCC(=O)O)NC1=O", "target": "Interleukin-1 receptor-like 2 (IL1RL2, Homo sapiens, UniProt Q9HB29)", "assay": "reporter gene (SEAP), inhibitor, HEK-Blue IL-36R reporter", "system": "HEK-Blue IL-36R cells", "conditions": "0.046 µM, 6 h, added: IL-36γ 100 ng/mL", "measurement": "remaining activity", "value": "103%"}
{"Compound": "CCC1(CC)C(=O)N(c2ccc(CC(=O)O)cc2)C1=O.O=C(O)C(F)(F)F", "target": "Dipeptidyl peptidase 8", "assay": "enzyme activity, inhibitor", "conditions": "5 µM", "measurement": "activity vs control", "value": "23%"}
{"Compound": "CCCCCCCCCCCCC/C=C/C=O", "target": "REEP5 (Homo sapiens, UniProt Q00765)", "assay": "competitive isoTOP-ABPP", "system": "proteome, soluble, MDA-MB-231", "conditions": "100 µM, 60 min, added: iodoacetamide probe", "scale": "reference: DMSO over compound-treated, higher = stronger cysteine blockade", "measurement": "isoTOP-ABPP competition ratio", "value": 1.2}
{"Compound": "CC[C@H](C)[C@@H]1NC(=O)[C@H](Cc2ccc(O)cc2)NC(=O)[C@H](Cc2ccccc2)NC(=O)[C@H](Cc2ccccc2)NC(=O)[C@H](Cc2ccccc2)NC(=O)CSC[C@@H](C(=O)N[C@@H](Cc2c[nH]cn2)C(N)=O)NC(=O)[C@H](CC(N)=O)NC(=O)[C@H](Cc2c[nH]c3ccccc23)NC1=O", "target": "STING1 (Homo sapiens, UniProt Q86WV6, H232R)", "assay": "thermal stability, DSF", "conditions": "200 µM", "measurement": "ΔTm", "value": "7.57 °C"}
{"Compound": "COc1ccc(C(=O)c2c(C(=O)NCCCN(C)C)oc3ccc(Cl)cc3c2=O)cc1OC", "target": "GHSR (Homo sapiens, UniProt Q92847)", "assay": "SRF-RE reporter gene", "system": "HEK293T", "measurement": "Emax", "value": "106 ± 1.6%"}
{"Compound": "CC(C)Oc1cc(Cl)ccc1CNc1cc(-c2ccccc2)nc2ncnn12", "target": "GPR3 (Homo sapiens, UniProt P46089)", "assay": "cAMP reporter", "system": "human cells", "conditions": "1 µM", "scale": "higher is more cAMP", "measurement": "cAMP luminescence", "value": "14300 a.u. and 26700 a.u. and 3340 a.u. and 14700 a.u. and 3770 a.u. and 5920 a.u. and 8210 a.u. and 6090 a.u."}
{"Compound": "COc1ccccc1-c1ccncc1C(=O)Nc1nnc(OCc2ccc(Cl)cc2)s1", "target": "Bifunctional 3'-5' exonuclease/ATP-dependent helicase WRN, residues 500-946 (WRN, Homo sapiens, UniProt Q14191)", "assay": "ATPase activity, ADP-Glo", "conditions": "0.03 µM", "scale": "reference: 0 µM cpd", "measurement": "remaining activity", "value": "106%"}
{"Compound": "Cc1cnc2nc1Nc1cccc(c1)COC/C=C/COCc1cc(ccc1OCCN1CCOCC1)N2", "target": "MAP3K13 (Homo sapiens, UniProt O43283)", "conditions": "concentration not given, kinase construct LZK", "scale": "reference: control", "measurement": "binding", "value": "94%"}
{"Compound": "CN(C)c1ccc(-n2cc(COC(=O)[C@]3(C)C=C(C(=O)OC(C)(C)C)C(=O)CC3)nn2)cc1", "target": "MAPK8", "assay": "D-peptide binding, inhibitor, FP peptide displacement", "conditions": "50 µM", "scale": "lower is stronger displacement", "measurement": "fraction bound", "value": 0.201}
{"Compound": "CCCc1ccc(C(=O)N2c3ccc(F)cc3[C@@H](Nc3ccccc3)C[C@H]2C)cc1", "target": "Ecdysone receptor (Aedes albopictus, UniProt Q9U3Y4)", "assay": "ligand binding, inhibitor", "system": "intact cells", "conditions": "added: [3H]ponasterone A", "scale": "direction not given", "measurement": "pIC50 Z-score", "value": 0.66}
{"Compound": "COC(=O)[C@@]1(Cc2ccccc2)C=C(C(=O)OC(C)(C)C)C(=O)CC1", "target": "MAPK14 (Homo sapiens, UniProt Q16539, C119V)", "assay": "peptide binding, fluorescence polarization", "conditions": "250 µM", "measurement": "fraction bound", "value": 0.116}
{"Compound": "C/C1=C\\CC/C(C)=C/CC(C)(C)/C=C/C1", "target": "Trpv1 (Rattus norvegicus, UniProt O35433)", "assay": "inhibitor, outside-out patch clamp", "conditions": "10 µM, added: pH 5.5 activation", "measurement": "remaining current fraction", "value": "0.58 ± 0.02"}
{"Compound": "O=[N+]([O-])c1cc(Br)cc([N+](=O)[O-])c1NS(=O)(=O)c1ccc(Br)cc1", "target": "PYL10, with HAB1 (Arabidopsis thaliana, UniProt Q8H1R0)", "assay": "antagonist", "conditions": "10 µM, added: ABA 5 µM", "scale": "higher = more HAB1 activity", "measurement": "HAB1 phosphatase activity", "value": "0.082 a.u. and 0.08 a.u. and 0.088 a.u."}
{"Compound": "CC(C=CC=C(C)C=CC1=C(C)CCCC1(C)C)=CC=O", "target": "Rhodopsin (RHO, Homo sapiens, UniProt P08100, E181K)", "assay": "immunostaining, refers to: opsin", "system": "COS-7 transfected", "conditions": "30.00 µM, unit not given", "scale": "reference: surface over total stained cells", "measurement": "plasma membrane localization", "value": 0.83}
{"Compound": "O=C(Nn1c(-c2cccc(Cl)c2)nc2ccccc2c1=O)c1ccccc1", "target": "TRPM channel TRPM_PZQ (Fasciola hepatica, UniProt A0A4E0RBW4)", "assay": "cell-attached patch clamp", "conditions": "10 µM", "measurement": "single channel conductance", "value": "138 ± 4 pS"}
{"Compound": "CCCCCCCO[C@H]1CO[C@H](CO)[C@@H](O)[C@H](O)[C@@H]1O", "target": "Type 1 fimbrin D-mannose specific adhesin, lectin domain (fimH, Escherichia coli K-12, UniProt P08191)", "assay": "binding, isothermal titration calorimetry", "conditions": "15 °C, individual direct titrations", "measurement": "-TΔS", "value": "1.1 kJ/mol and 0.5 kJ/mol"}
{"Compound": "CCCCCC=CC=C1C(=O)C=CC1CC=CCCCC(=O)O (stereo not drawn)", "target": "KPNB1 (Homo sapiens, UniProt Q14974)", "assay": "competitive isoTOP-ABPP", "system": "Ramos soluble proteome", "conditions": "100 µM, added: iodoacetamide probe", "scale": "reference: DMSO over compound-treated, higher = stronger cysteine blockade", "measurement": "isoTOP-ABPP competition ratio", "value": 1.5}
{"Compound": "C=CC(=O)N1CCCC(n2c(=O)c3ncccc3n(Cc3ccc(Oc4ccccc4)cc3)c2=O)C1 (stereo not drawn)", "target": "NudC domain-containing protein 2 (NUDCD2, Homo sapiens, UniProt Q8WVJ2)", "assay": "thermal proteome profiling, refers to: NUDCD2", "conditions": "10 µM, destabilized proteins, unit not given", "scale": "reference: vehicle", "measurement": "melting temperature shift", "value": -7.12}
{"Compound": "CSc1cc(C)[nH]c(=O)c1CNC(=O)c1c(C)n(C(C)C2CCC(NC3(C)COC3)CC2)c2ccccc12 (stereo not drawn)", "target": "EZH2 (Homo sapiens, UniProt Q15910)", "assay": "binding, TR-FRET", "measurement": "residence time", "value": "2760 min"}
{"Compound": "CCC1(CC)C(=O)N(c2cc(O[Si](C)(C)C(C)(C)C)cc(C(=O)N3CCN(Cc4ccc(Br)cc4)CC3)c2)C1=O", "target": "Dipeptidyl peptidase 8", "assay": "enzyme activity, inhibitor", "conditions": "5 µM", "measurement": "activity vs control", "value": "> 90%"}
{"Compound": "CCCCCCCC/C=C\\CCCCCCCC(=O)OCC(O)COP(=O)(O)O (stereo not drawn)", "target": "LPAR1 (Homo sapiens, UniProt Q92633)", "assay": "G-protein dissociation, agonist, NanoBiT", "system": "HEK-293T", "conditions": "10 pM, wild-type receptor", "scale": "reference: baseline luminescence", "measurement": "fold change", "value": "1 and 0.999 and 1.01 and 0.986 and 0.993"}
{"Compound": "Cc1ccc(C(=O)N2CCN(CC(OCc3ccc4ccccc4c3)c3ccc(Cl)cc3Cl)CC2)cc1 (stereo not drawn)", "target": "ULK1 (Homo sapiens, UniProt O75385)", "assay": "enzyme activity, inhibitor, ADP detection", "conditions": "0.1 µM", "measurement": "activity vs control", "value": "117%"}
{"Compound": "O=C1c2sc(-c3ccc(N4CCC(F)C4)nc3F)nc2CCN1c1cccnc1 (stereo not drawn)", "target": "TAR DNA-binding protein 43, aggregated (TARDBP, Homo sapiens, UniProt Q13148)", "assay": "radioligand binding", "system": "human, FTLD-TDP type B sarkosyl-insoluble extract", "conditions": "142.86 nM", "measurement": "specific binding", "value": "1.99 nM and 3.49 nM"}
{"Compound": "C=C1CC2(C(=O)OC)C=C(C(=O)OC(C)(C)C)C(=O)C1C2 (stereo not drawn)", "target": "MAPK8", "assay": "D-peptide binding, inhibitor, FP peptide displacement", "conditions": "500 µM", "scale": "lower is stronger displacement", "measurement": "fraction bound", "value": 0.119}
{"note": "Some of these lines once more:"}
{"Compound": "Cc1cc(C)cc(COc2cc3c(cc2OCc2cc(C)cc(C)c2)C2CC(O)(Cc4cn(CCOCCOCCNC(=O)CCCCC5SCC6NC(=O)NC65)nn4)CC(C)N2CC3)c1 (stereo not drawn)", "target": "Proteasome activator complex subunit 2 (Homo sapiens, UniProt Q9UL46)", "assay": "biotinylated probe pull-down, refers to: PSME2", "conditions": "10 µM probe", "scale": "reference: heavy over light", "measurement": "SILAC ratio", "value": 2.21}
{"Compound": "CCCCCCCCCCCCCCCC(=O)OCC(CSC[C@H](N)C(=O)N[C@@H](CO)C(=O)N[C@@H](CCCCN)C(=O)N[C@@H](CCCCN)C(=O)N[C@@H](CCCCN)C(=O)N[C@@H](CCCCN)C(=O)NCCCCCC(=O)N[C@@H](CCCCN)C(=O)N[C@@H](CC(C)C)C(=O)N[C@H](C(=O)N[C@@H](Cc1ccccc1)C(=O)N[C@@H](Cc1ccccc1)C(=O)N[C@@H](Cc1ccc2ccccc2c1)C(=O)O)C(C)C)OC(=O)CCCCCCCCCCCCCCC (stereo partly drawn)", "target": "Amyloid-beta precursor protein, fibrillar amyloid-beta (APP, Homo sapiens, UniProt P05067)", "assay": "TEM", "conditions": "2.0 eq, 8 h, fibril 3, added: APP 20 µM", "measurement": "fibril diameter", "value": "32.5 nm"}
{"Compound": "CC(C)[C@@H]1NC(=O)[C@H](Cc2ccccc2)NC(=O)CSC[C@@H](C(N)=O)NC(=O)[C@H](CCC(=O)O)NC(=O)[C@H](CO)NC(=O)[C@H](Cc2c[nH]c3cccc(Cl)c23)NC(=O)[C@H](C2CCCCC2)NC(=O)[C@H](C(C)C)NC(=O)[C@H](Cc2ccc(O)cc2)NC(=O)[C@H](CC(=O)O)NC(=O)[C@H](Cc2c[nH]c3ccccc23)NC(=O)[C@H](Cc2ccc(N)nc2)NC(=O)[C@H](Cc2c[nH]c3ccc(Cl)cc23)NC(=O)[C@H](CCC(=O)O)NC1=O", "target": "Interleukin-1 receptor-like 2 (IL1RL2, Homo sapiens, UniProt Q9HB29)", "assay": "reporter gene (SEAP), inhibitor, HEK-Blue IL-36R reporter", "system": "HEK-Blue IL-36R cells", "conditions": "0.046 µM, 6 h, added: IL-36γ 100 ng/mL", "measurement": "remaining activity", "value": "103%"}
{"Compound": "CCC1(CC)C(=O)N(c2ccc(CC(=O)O)cc2)C1=O.O=C(O)C(F)(F)F", "target": "Dipeptidyl peptidase 8", "assay": "enzyme activity, inhibitor", "conditions": "5 µM", "measurement": "activity vs control", "value": "23%"}
